# Published values from different studies.
# Lines come from different studies, so protocols differ.
# Effect on: cell growth or viability
Structure (SMILES),cell line,method,concentration,time,measurement,result
CCN(Cc1cc(F)cc(F)c1)c1ccc(CO)c(Cl)c1,RBE,ATP luminescence,46 µM,72 h,inhibition,81%
Cc1ccc2[nH]c3ccccc3c(=O)c2c1,HEK293,,,,IC50,> 10 µM
CCN(Cc1c(F)cccc1Cl)c1ccc(CO)c(Cl)c1,RBE,ATP luminescence,46 µM,72 h,inhibition,54%
Cc1cccc(-c2nn3c(c2-c2ccnc4ccc(C(N)=O)cc24)CCC3)n1,HD-MB03,,,7 days,IC50,> 10 µM
O=C(C=Cc1ccccc1)Nc1ccc(Oc2nnc(-c3ccc(Cl)cc3)c3ccccc23)cc1,MCF7,MTT,0.312 µM,,cell death,0.0443%
CC(C)CC1c2[nH]c3ccccc3c(=O)c2CN1C(=O)OC(C)(C)C (centres unmarked),HEK293,,,,IC50,> 10 µM
CNc1ncc2c(/C=C/C(=O)N3CCC(OC)CC3)nn(Cc3ccc(C)cc3)c2n1,FLO-1,resazurin,,5 days,EC50,2.34 µM
COc1ccc2c(c1)[C@]1(C[C@H]1c1ccc3c(/C=C/c4ccc(CN5C[C@@H](C)O[C@@H](C)C5)cc4)n[nH]c3c1)C(=O)N2,MB002,,,7 days,IC50,0.0042 µM
CCC(=CCc1c(O)cc2c(c1O)C(=O)C[C@@H](c1ccc(O)cc1)O2)CC,HeLa,MTT,6.25 µM,48 h,inhibition,0.424%
Cc1nc(C)c(-c2ccc(C(=O)c3ccccc3)cc2)c(O)c1Br,HEK293,,,,IC50,> 10 µM
CC(=NNC(=S)Nc1ccccc1)c1ccc(Nc2nnc(-c3ccc(Cl)cc3)c3ccccc23)cc1,MCF7,MTT,0.312 µM,,cell death,0.177%
Cc1[nH]c(C)c(-c2ccc(OCc3cc(F)cc(F)c3)nc2)c(=O)c1Cl,HEK293,,,,IC50,> 10 µM
Cc1c(Cc2ccccc2)c(=O)oc2c(C)c(OCC(=O)NN=Cc3ccc([N+](=O)[O-])cc3)ccc12,PC-3,MTT,125 µg/mL,,viability,9.13%
O=C(Nc1ccccc1)Nc1ccc(Oc2nnc(-c3ccc(Cl)cc3)c3ccccc23)cc1,MCF7,MTT,10 µM,,cell death,94.6%
Cc1ccc(C(CS(=O)(=O)c2ccccc2)=NN=C2N=C(c3ccc(Br)cc3)CS2)cc1,WM 266-4,MTT,6.3 µM,48 h,viability,48.3%
CC(=NNC(=O)c1ccccc1)c1ccc(Nc2nnc(-c3ccc(Cl)cc3)c3ccccc23)cc1,MCF7,MTT,1.25 µM,,cell death,49.2%
COc1ccccc1CNC[C@@](C)(O)[C@@H]1CC[C@@H](C)C[C@H]1OCc1ccccc1,A2780,MTT,30 µM,72 h,inhibition,99.9%
CC(=NNC(=O)c1ccccc1O)c1ccc(Nc2nnc(-c3ccc(Cl)cc3)c3ccccc23)cc1,MCF7,MTT,10 µM,24 h,viability,5.31%
CNc1ncc2c(/C=C/C(=O)N3CCC(OC)CC3)nn(Cc3ccccc3C)c2n1,FLO-1,resazurin,,5 days,EC50,6.06 µM
CC(=O)Nc1ccc(Oc2nnc(-c3ccc(Cl)cc3)c3ccccc23)cc1,MCF7,MTT,2.5 µM,24 h,viability,5.8%
C[C@@H]1CC[C@@H]([C@](C)(O)CNCc2cccc3ccccc23)[C@H](OCc2ccccc2)C1,HeLa,MTT,10 µM,72 h,inhibition,67.8%
CC(=NNC(=O)c1ccccc1Cl)c1ccc(Nc2nnc(-c3ccc(Cl)cc3)c3ccccc23)cc1,MCF7,MTT,1.25 µM,,cell death,37.9%
Cc1c(Cc2ccccc2)c(=O)oc2c(C)c(OCC(=O)NN=Cc3ccco3)ccc12,PC-3,MTT,125 µg/mL,,viability,17.1%

# A few entries again:
Structure (SMILES),cell line,method,concentration,time,measurement,result
Cc1cccc(-c2nn3c(c2-c2ccnc4ccc(C(N)=O)cc24)CCC3)n1,HD-MB03,,,7 days,IC50,> 10 µM
CNc1ncc2c(/C=C/C(=O)N3CCC(OC)CC3)nn(Cc3ccc(C)cc3)c2n1,FLO-1,resazurin,,5 days,EC50,2.34 µM
Cc1nc(C)c(-c2ccc(C(=O)c3ccccc3)cc2)c(O)c1Br,HEK293,,,,IC50,> 10 µM
